Assay results from different studies.
Each line is one published result; not all experiments were run side by side. ± marks the error that the study gave.

Structure (SMILES) = CCCC[C@H](NC(=O)CNC(=O)CNC(=O)CNC(=O)c1ccc(NN)nc1)C(=O)N[C@H]1CC(=O)NCCCC[C@@H](C(N)=O)NC(=O)[C@H](Cc2c[nH]c3ccccc23)NC(=O)[C@H](CCCNC(=N)N)NC(=O)[C@@H](Cc2ccccc2)NC(=O)[C@H](Cc2c[nH]cn2)NC1=O [technetium-99m labelled]; system = C57 mouse, B16/F1 melanoma, heart; setting = intravenous, 2 h; endpoint = uptake; value = 0.04 ± 0.03 %ID/g
Structure (SMILES) = C[C@H](NC(=O)CNC(=O)[C@H](CCC(=O)O)NC(=O)[C@H](CCC(=O)O)NC(=O)[C@H](CC(=O)O)NC(=O)[C@@H]1CCCN1C(=O)[C@H](Cc1ccccc1)NC(=O)[C@H](CS)NC(=O)[C@H](Cc1ccc(O)cc1)NC(=O)CCCNC(=O)CNC(=O)CNC(=O)[C@@H](C)NC(=O)CN)C(=O)N[C@@H](CS)C(=O)N[C@@H](Cc1ccc(O)cc1)C(N)=O [technetium-99m labelled]; test = radio-HPLC; system = human serum; setting = 4 h, 37 °C, serum mix 1:10 v/v; endpoint = radiochemical purity; value = 92.81 ± 0.32%
Structure (SMILES) = CCCC[C@H](NC(=O)CNC(=O)CNC(=O)c1ccc(NN)nc1)C(=O)N[C@H]1CC(=O)NCCCC[C@@H](C(N)=O)NC(=O)[C@H](Cc2c[nH]c3ccccc23)NC(=O)[C@H](CCCNC(=N)N)NC(=O)[C@@H](Cc2ccccc2)NC(=O)[C@H](Cc2c[nH]cn2)NC1=O [technetium-99m labelled]; system = C57 mouse, B16/F1 melanoma-bearing, heart; setting = intravenous, 4 h; endpoint = tissue uptake; value = 0.05 ± 0.04 %ID/g
Structure (SMILES) = CSCC[C@H](NC(=O)[C@H](CC(C)C)NC(=O)[C@H](Cc1c[nH]cn1)NC(=O)CNC(=O)[C@@H](NC(=O)[C@H](C)NC(=O)[C@H](Cc1c[nH]c2ccccc12)NC(=O)[C@H](CCC(N)=O)NC(=O)CCCCCNC(=O)CNC(=O)CNC(=O)CNC(=O)CSC(C)=O)C(C)C)C(N)=O [technetium-99m labelled]; system = nude mouse, PC-3 xenograft, lung; setting = 90 min, added: excess unlabelled conjugate; endpoint = tissue uptake; value = 1.02 ± 0.21 %ID/g
Structure (SMILES) = N=C(N)NCCC[C@@H]1NC(=O)[C@H](CCCCNC(=O)CNC(=O)CNC(=O)CNC(=O)CC[C@H](NC(=O)CCOCCOCCOCCOCCNC(=O)CC[C@H](NC(=O)CN2CCN(CC(=O)O)CCN(CC(=O)O)CCN(CC(=O)O)CC2)C(=O)NCCOCCOCCOCCOCCC(=O)N[C@@H](CCC(=O)NCC(=O)NCC(=O)NCC(=O)NCCCC[C@@H]2NC(=O)[C@@H](Cc3ccccc3)NC(=O)[C@H](CC(=O)O)NC(=O)CNC(=O)[C@H](CCCNC(=N)N)NC2=O)C(=O)NCC(=O)NCC(=O)NCC(=O)NCCCC[C@@H]2NC(=O)[C@@H](Cc3ccccc3)NC(=O)[C@H](CC(=O)O)NC(=O)CNC(=O)[C@H](CCCNC(=N)N)NC2=O)C(=O)NCC(=O)NCC(=O)NCC(=O)NCCCC[C@@H]2NC(=O)[C@@H](Cc3ccccc3)NC(=O)[C@H](CC(=O)O)NC(=O)CNC(=O)[C@H](CCCNC(=N)N)NC2=O)NC(=O)[C@@H](Cc2ccccc2)NC(=O)[C@H](CC(=O)O)NC(=O)CNC1=O [indium-111 labelled]; system = athymic nude mice, female, U-87 MG glioma xenograft, tumour and lungs; setting = intravenous, 4 h; how to read = baseline: tumour over lungs; endpoint = tumour to tissue ratio; value = 5.07 ± 1.52
Structure (SMILES) = N=C(N)NCCC[C@@H]1NC(=O)[C@H](CC(=O)NC23CNCCNCC(N)(CNCCNC2)CNCCNC3)NC(=O)[C@@H](Cc2ccccc2)NC(=O)[C@H](CC(=O)O)NC(=O)CNC1=O [copper-64 labelled]; system = Nu/Nu mouse, male, tumour-bearing, blood; setting = intravenous, 10 µCi, 1 h; endpoint = tissue uptake; value = 0.6 ± 0.31 %ID/g
Structure (SMILES) = N=C(N)NCCC[C@@H]1NC(=O)[C@H](CCCCNC(=O)CCOCCOCCOCCOCCNC(=O)CN2CCN(CC(=O)O)CCN(CC(=O)O)CCN(CC(=O)O)CC2)NC(=O)[C@@H](Cc2ccccc2)NC(=O)[C@H](CC(=O)O)NC(=O)CNC1=O [indium-111 labelled]; system = female athymic nude mice, intestine; setting = intravenous, 3 µCi, 4 h, U-87 MG glioma xenograft; endpoint = tissue uptake; value = 0.91 ± 0.16 %ID/g
Structure (SMILES) = CCCC[C@H](NC(=O)CCCCCCCNC(=O)c1ccc(NN)nc1)C(=O)N[C@H]1CC(=O)NCCCC[C@@H](C(N)=O)NC(=O)[C@H](Cc2c[nH]c3ccccc23)NC(=O)[C@H](CCCNC(=N)N)NC(=O)[C@@H](Cc2ccccc2)NC(=O)[C@H](Cc2c[nH]cn2)NC1=O [technetium-99m labelled]; system = C57 mouse, B16/F1 melanoma, spleen; setting = intravenous, 24 h; endpoint = uptake; value = 0.05 ± 0.04 %ID/g
Structure (SMILES) = N=C(N)NCCC[C@@H]1NC(=O)[C@H](CCCCNC(=O)CCOCCOCCOCCOCCNC(=O)CC[C@H](NC(=O)CCOCCOCCOCCOCCNC(=O)CC[C@H](NC(=O)CN2CCN(CC(=O)O)CCN(CC(=O)O)CCN(CC(=O)O)CC2)C(=O)NCCOCCOCCOCCOCCC(=O)N[C@@H](CCC(=O)NCCOCCOCCOCCOCCC(=O)NCCCC[C@@H]2NC(=O)[C@@H](Cc3ccccc3)NC(=O)[C@H](CC(=O)O)NC(=O)CNC(=O)[C@H](CCCNC(=N)N)NC2=O)C(=O)NCCOCCOCCOCCOCCC(=O)NCCCC[C@@H]2NC(=O)[C@@H](Cc3ccccc3)NC(=O)[C@H](CC(=O)O)NC(=O)CNC(=O)[C@H](CCCNC(=N)N)NC2=O)C(=O)NCCOCCOCCOCCOCCC(=O)NCCCC[C@@H]2NC(=O)[C@@H](Cc3ccccc3)NC(=O)[C@H](CC(=O)O)NC(=O)CNC(=O)[C@H](CCCNC(=N)N)NC2=O)NC(=O)[C@@H](Cc2ccccc2)NC(=O)[C@H](CC(=O)O)NC(=O)CNC1=O [indium-111 labelled]; system = female athymic nude mice, lungs; setting = intravenous, 3 µCi, 24 h, U-87 MG glioma xenograft; endpoint = tissue uptake; value = 1.62 ± 0.21 %ID/g
Structure (SMILES) = CC(C)C[C@H](NC(=O)[C@H](Cc1ccc(O)cc1)NC(=O)[C@@H](CCCNC(=N)N)NC(=O)[C@@H](CO)NC(=O)[C@H](Cc1ccccc1)NC(=O)[C@H](CC1CCCCC1)NC(=O)[C@H](CC(=O)O)NC(=O)[C@H](CCC(=O)O)NC(=O)[C@H](CCC(=O)O)NC(=O)[C@H](CCC(=O)O)NC(=O)[C@H](CCC(=O)O)NC(=O)CCc1ccc(N(c2ccc(CCC(=O)O)cc2)c2ccc(-c3c4c(c(-c5ccc(N(c6ccc(CCC(=O)O)cc6)c6ccc(CCC(=O)O)cc6)cc5)c5nsnc35)N=S=N4)cc2)cc1)C(=O)N[C@@H](Cc1c[nH]c2ccccc12)C(=O)N[C@@H](CO)C(N)=O; system = nude mouse, heart; setting = dose not given, ex vivo, unblocked, unit not given; how to read = baseline: liver; endpoint = signal intensity; value = 0.08
